Measured values from different studies.
Each numbered part is a random draw from the data of one study; scales do not carry over between parts.

Sample 1
Target: Interferon regulatory factor 7, full length, phosphomimetic (IRF7, Homo sapiens, UniProt Q92985, residues 1-503, S101K/S471D/S472D/S475D/S476D/S477D/S483D/S484D/S487D)
Method: protein-binding microarray
Molecule type: double-stranded DNA, one strand shown
Sample: in vitro
Tested at: 250 nM
Notes: 60-bp whole probe
Together with: salmon DNA 0.4 mg/ml
Relative to: random background probes
Direction: higher = stronger binding
All sequences stand within: GCCTAGCAC … GTCTTGATTCGCTTGACGCTGCTG
Target sequence (chain): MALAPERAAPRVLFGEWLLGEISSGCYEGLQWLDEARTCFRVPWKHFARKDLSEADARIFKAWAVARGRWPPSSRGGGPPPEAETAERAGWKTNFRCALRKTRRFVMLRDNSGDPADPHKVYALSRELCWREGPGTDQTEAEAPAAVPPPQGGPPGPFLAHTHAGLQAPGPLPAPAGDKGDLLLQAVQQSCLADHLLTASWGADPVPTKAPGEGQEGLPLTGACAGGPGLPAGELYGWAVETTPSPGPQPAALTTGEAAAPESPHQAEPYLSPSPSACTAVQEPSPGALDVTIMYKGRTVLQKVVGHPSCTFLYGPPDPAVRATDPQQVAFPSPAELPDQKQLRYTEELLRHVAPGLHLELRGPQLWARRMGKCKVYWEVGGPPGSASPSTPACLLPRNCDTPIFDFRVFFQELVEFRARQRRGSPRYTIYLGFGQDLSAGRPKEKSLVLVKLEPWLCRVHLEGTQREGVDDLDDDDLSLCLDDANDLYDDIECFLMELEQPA
| Strand | log fluorescence [z-score] |
| --- | --- |
| TTGTTTTACAATTTGCTTTAGTGCTAG | 1.82 |
| TTTCATTTTTTTTTTCATCAGTGCTAG | 2.04 |
| GACGGTTTCGGTTTGGGGACGTGCTAG | 14.2 |
| CCAGGAAAAGGGATTCAGTTGTGCTAG | 0.248 |
| TCCAATTCTCTTTTCACTTTGTGCTAG | 2.13 |
| CGCCCACTCATGCCTCTTAAGGTGCTA | 0.279 |
| GACGGTTTCGACACGGGGGACGTGCTA | 5.04 |
| TTAGGACTGGGTTTCGGTGAGTGCTAG | 1.12 |
| TTAGGACTGAGTCTCGGTTAGTGCTAG | 1.43 |
| TGAGGTATCCTTTTCCTTTAGTGCTAG | 1.05 |
| TCAGGTCTCGGACTGGGTTAGTGCTAG | 0.378 |
| TACGGTATCCTTTTCCTGACGTGCTAG | 1.43 |
| GACGGTTCCGATTTCGGGACGTGCTAG | 2.76 |
| TTAGATCTCAGTATCGATCAGTGCTAG | 0.319 |
| TCCATTTTCTAAATTCCCTAGTGCTAG | 1.69 |
| CTCTGTCCCCCTTTTATATTGTGCTAG | 0.406 |
| CTTAGTATTTTTTTCCAGAGGTGCTAG | 0.723 |
| TTACGTATCGACACTGGGTTAGTGCTA | 0.026 |
| TGGCTTTCCTTTATGTCCTGGTGCTAG | 0.702 |
| GTGTTTTTCTCCTATTTAAGAGTGCTA | 2.05 |
| TCAACCTTGAACTTCGGACTGTGCTAG | -0.21 |
| TTAGGTATCGGACTGGGTAAGTGCTAG | 0.256 |

Sample 2
Target: RING finger protein unkempt homolog, zinc fingers 1-6, GST-SBP tag (UNK, Homo sapiens, UniProt Q9C0B0, residues 30-357)
Method: RNA Bind-n-Seq
Molecule type: RNA
Sample: in vitro
Tested at: not given
Notes: RNA with constant flanks, human and mouse sites, ends assumed
Relative to: input RNA pool
Direction: higher = stronger binding
Construct (chain): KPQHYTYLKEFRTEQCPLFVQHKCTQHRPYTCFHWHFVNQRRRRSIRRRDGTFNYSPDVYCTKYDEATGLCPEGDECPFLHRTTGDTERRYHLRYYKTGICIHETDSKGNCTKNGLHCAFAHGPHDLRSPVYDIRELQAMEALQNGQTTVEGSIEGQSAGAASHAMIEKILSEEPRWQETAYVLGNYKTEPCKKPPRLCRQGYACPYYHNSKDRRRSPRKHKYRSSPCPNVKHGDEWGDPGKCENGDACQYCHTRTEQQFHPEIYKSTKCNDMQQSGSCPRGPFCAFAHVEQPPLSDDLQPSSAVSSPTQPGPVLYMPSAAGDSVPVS
| Strand | bound/input enrichment |
| --- | --- |
| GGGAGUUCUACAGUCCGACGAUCCUCUUGCUGCUGCUGCUCUGCAUCCAGCUCGGGGGCGGACAGAAGAAAAAGGAGAACCUUUUGGCUGAAAAAGUGGAGCAGCUGAUGGAAUGGAGUUCCAGGCGCUCGAUCUUCAGAAUGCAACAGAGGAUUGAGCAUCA | 0.146 ratio |
| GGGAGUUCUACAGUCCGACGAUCUCCUCACCAUCAAACCCGAAUGGAAACUUUAAUGUCGUCAUUAAAGAAGAGCCUCUAGAUGAUUAUGAUUAUGAACUUGGUGAAUGCCCAGAAGGGAUAACAGUGAAACAAGAAGAGACACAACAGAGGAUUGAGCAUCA | 0.731 ratio |
| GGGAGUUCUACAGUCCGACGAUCACGUUGUAUGUAAACACAGCAGCUGAUAGUUUUGAAUUCAAAGCUCAUGUUGAAGGAGAUGGUGUAGUGGAAGGGAUUAUCCGUUAUCAUCCAUUCUUAUAUGAUAGAGAAACUUACCCUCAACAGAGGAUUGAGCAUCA | 0.241 ratio |
| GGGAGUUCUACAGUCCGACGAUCAAGAUAAACUGUUCCUGAUGGGUAAUUGGGCUGGGUAGGCCUGAAGGCUUCACAGGUUAAUUUUUUGUUGUUGUUUUGGAAGCCCUAUCCCAAACCCAAAGGGAAGACUUCACAUGGAAUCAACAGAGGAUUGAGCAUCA | 0.165 ratio |
| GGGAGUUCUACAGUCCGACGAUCAAAUAUUUAAACUUGCAUUUGAAUAUAAAAAAAAAUCUAUUUUUCUAGAACUUCAUAAGAUAACCACUUGAUUUUGUGAUUCCAAUUCUUUGUAACUGUCUCAGAGCAGCCCUACUAGCACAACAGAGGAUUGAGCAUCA | 1.64 ratio |
| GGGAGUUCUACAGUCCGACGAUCUGCCUGCCUUCAAUCCUGGCCAAGUUGGAGUAGACUGGUAUGAGAAAACUAUGAUUAGUUCACAUUUACUGGUGCAUCCUUGAUCCUCUCACAGAUAGAGGUCUUAAAGGUUGGAUCAUGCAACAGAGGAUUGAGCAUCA | 0.356 ratio |
| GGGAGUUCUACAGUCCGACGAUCGAGAAUCCAUAUGACCUUGAUGCUUGGAGCAUUCUCAUUCGAGAGGCACAGAAUCAACCUAUAGACAAAGCACGGAAGACUUAUGAACGCCUUGUUGCCCAGUUCCCCAGUUCUGGCAGACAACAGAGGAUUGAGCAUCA | 0.469 ratio |
| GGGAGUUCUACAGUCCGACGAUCAUGGAACAAGGAAAAUAAGGCCUAAGCCAGCAUCCCCAGGUUGCCACAGCCCAUCCUUCAUAGCAGGAAAAUAAGGCCUAAGCCAGCAUCCCCAGGUUGCCACAGCCCAUCCUUCAAGCACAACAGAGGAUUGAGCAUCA | 0.0899 ratio |

Sample 3
Target: Prothrombin, mature alpha-thrombin (F2, Homo sapiens, UniProt P00734)
Method: aptamer microarray, sandwich
Molecule type: DNA with 2'F-ANA
Sample: in vitro
Tested at: 200 nM
Notes: whole 15-mer aptamer, many near background
Together with: Cy3 exosite-II aptamer, 400 nM
Direction: higher = stronger binding
Strand: GGTTGGTGTGGTTGG
| Modification | mean fluorescence intensity [a.u.] |
| --- | --- |
| 2'F-ANA at 3 4 5 8 12 13 14 15 | 55.7 |
| 2'F-ANA at 2 6 7 8 9 10 14 15 | 84.5 |
| 2'F-ANA at 3 5 10 11 15 | 58.4 |
| 2'F-ANA at 2 4 7 10 12 14 15 | 114 |
| 2'F-ANA at 7 8 14 | 280 |
| 2'F-ANA at 2 3 4 5 13 15 | 63.4 |
| 2'F-ANA at 2 5 7 10 11 14 | 49.9 |
| 2'F-ANA at 1 2 4 6 9 10 11 12 14 15 | 48.1 |
| 2'F-ANA at 3 5 6 10 13 14 15 | 51.2 |
| 2'F-ANA at 2 3 5 6 11 12 15 | 182 |
| 2'F-ANA at 2 3 4 5 9 11 13 | 61.6 |
| 2'F-ANA at 4 5 6 8 9 12 13 14 15 | 48.4 |
| 2'F-ANA at 1 3 6 9 12 15 | 531 |
| 2'F-ANA at 2 5 9 13 14 | 41.8 |
| 2'F-ANA at 6 7 9 11 12 13 | 520 |
| 2'F-ANA at 1 2 3 6 9 10 11 13 15 | 64.3 |
| 2'F-ANA at 4 7 10 11 12 14 15 | 64.2 |
| 2'F-ANA at 5 6 9 13 | 53.5 |
| 2'F-ANA at 2 4 6 7 8 9 10 | 76.9 |
| 2'F-ANA at 1 2 4 6 7 10 11 13 | 49.3 |
| 2'F-ANA at 1 4 6 10 11 12 14 15 | 89.1 |
| 2'F-ANA at 2 3 4 5 6 7 10 12 14 | 46.7 |
| 2'F-ANA at 1 2 4 5 6 8 9 10 15 | 50.1 |
| 2'F-ANA at 1 2 3 7 8 11 13 | 218 |

Sample 4
Target: RNA binding protein fox-1 homolog 2, RRM domain, GST-SBP tag (RBFOX2, Homo sapiens, UniProt O43251-10, residues 100-194)
Method: RNA Bind-n-Seq
Molecule type: RNA
Sample: in vitro
Tested at: 365 nM
Notes: natural RNA segment, single round, ends assumed
Relative to: no-protein control
Direction: higher = stronger binding
Construct (chain): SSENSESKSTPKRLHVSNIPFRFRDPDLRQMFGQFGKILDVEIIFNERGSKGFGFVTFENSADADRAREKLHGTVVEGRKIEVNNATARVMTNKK
| Strand | RBNS enrichment (R) |
| --- | --- |
| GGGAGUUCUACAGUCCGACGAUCUCACACACUGGACACCAUCACCUCUUUGGAACUGCCAGACCCUGGGGGUCCCCAGUGAGCAAAGGUCUGUCCUUGUCCCUUUGUCUGUCUGUGAAUAAAUGUGAGUUCGUUGGAAUUCUCGGGUGCCAA | 0.473 |
| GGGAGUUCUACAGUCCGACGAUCUUUCACAGUUAUUUCUAUCCACGCCUAUGAAUCUUUGGACGGUGAGAUCUCACAGAUGUCAGAACUGCUGGAACUAUGAAAUGGGGUAUAUAACCACGACUCUGGUGGGGUGGAAUUCUCGGGUGCCAA | 1.17 |
| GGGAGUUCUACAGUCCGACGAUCAAAAGUGAUUUUUUUAAGGACAGAACUUCUUCCAAAAGAGAGGGAUGGCUUUCCCAGAAGACACUCCUGGCCAUCUGUGGAUUUGUCUGUGCACCUAUUGGCUCUUCUAGUGGAAUUCUCGGGUGCCAA | 0.647 |
| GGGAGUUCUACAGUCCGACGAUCUUAUAGUAGUUUUAUAAUCCUGAAAUUCGAAAGCUUUCCCAAUUGCACUUGCAUCUAAACAAAACUGUUGCAGUUUUUACUCUAUUUAUUUUGUUCCCCAUGUUUAUGAAUGGAAUUCUCGGGUGCCAA | 8.55 |
| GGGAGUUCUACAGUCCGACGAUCGCAACAAAUAUUUAUACAUACAAGAUGCUAGUUCAUUUGAAUAUUUCUCCCAACUUAUCCAAGGAUCUCCAGCUCUAACAAAAUGGUUUAUUUUUAUUUAAAUGUCAAUAUGGAAUUCUCGGGUGCCAA | 0.515 |
| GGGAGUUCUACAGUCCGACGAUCCAGAGUCCUGCCUAGGGCACCCGGGGAAGCCCGUCCCCACUUCCCCACUCUGUAAGUGUUUUGGAGUCUGACUAUUGCAGACACCCUCUGGCUGGGCUGCUCAGGGUGACUGGAAUUCUCGGGUGCCAA | 0.849 |
| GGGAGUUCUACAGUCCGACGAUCCGGUCCUCUGGGCAGUGUGGGGUGCAGAAUGGGGUGCCUAGGCCUGAGCGUUGCCUGGAGCCUAGGCCGGGGGCCGCCCUCGGGCAGGCGUGGGUGAGAGCCAAGACCGCUGGAAUUCUCGGGUGCCAA | 1.03 |
| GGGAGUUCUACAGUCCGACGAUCGCAAGCUCAGGGAAGGAUCAUUUCUGGUGAUAAUUCCAUUCACUUUGCACUUUGAUGGGCAUUAAAAAAAAUAGCCCUCACAAGAUAGUAACCUCAAAUUCCUGUUCUUGUGGAAUUCUCGGGUGCCAA | 0.248 |
| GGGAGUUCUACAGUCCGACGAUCCUAAUCUAUACACAGUCUAUCCAUAGAUGCAUAUUUUACCCCAACUGGCUAGAGAUUUAUUUGUUGUAAAUGCUGUAUAGAUUUUGGGUUUUUUUUUUUUGUUCUUCCUCUGGAAUUCUCGGGUGCCAA | 0.751 |

Some of these lines once more (sample 2):
| Strand | bound/input enrichment |
| --- | --- |
| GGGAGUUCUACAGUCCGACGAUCACGUUGUAUGUAAACACAGCAGCUGAUAGUUUUGAAUUCAAAGCUCAUGUUGAAGGAGAUGGUGUAGUGGAAGGGAUUAUCCGUUAUCAUCCAUUCUUAUAUGAUAGAGAAACUUACCCUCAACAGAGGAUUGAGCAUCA | 0.241 ratio |
| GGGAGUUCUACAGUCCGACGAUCAAGAUAAACUGUUCCUGAUGGGUAAUUGGGCUGGGUAGGCCUGAAGGCUUCACAGGUUAAUUUUUUGUUGUUGUUUUGGAAGCCCUAUCCCAAACCCAAAGGGAAGACUUCACAUGGAAUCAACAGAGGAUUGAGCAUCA | 0.165 ratio |
| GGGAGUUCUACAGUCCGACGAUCAAAUAUUUAAACUUGCAUUUGAAUAUAAAAAAAAAUCUAUUUUUCUAGAACUUCAUAAGAUAACCACUUGAUUUUGUGAUUCCAAUUCUUUGUAACUGUCUCAGAGCAGCCCUACUAGCACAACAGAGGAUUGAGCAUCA | 1.64 ratio |
